Measurements from different studies.
Every numbered part comes from another study and shows a few of its results, in no order. Changes are numbered by the printed parent chain.

Set 1
Target: RNA binding protein fox-1 homolog 2, RRM domain, GST-SBP tag (RBFOX2, Homo sapiens, UniProt O43251-10, residues 100-194)
Technique: RNA Bind-n-Seq
Form: RNA
Sample: in vitro
Concentration: 365 nM
Notes: natural RNA segment, single round, ends assumed
Relative to: no-protein control
Direction: higher = stronger binding
Target sequence (chain): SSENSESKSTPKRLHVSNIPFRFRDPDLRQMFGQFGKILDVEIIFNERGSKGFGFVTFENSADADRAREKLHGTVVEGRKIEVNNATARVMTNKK
`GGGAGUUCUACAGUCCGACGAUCGGUUGGACUGCUCAUGGAUUUGGUAGCUGUUUUAAAAAGGUAGCUGUGAUACAAGCCCCAGGACACCCCCACCCAAAGAGCCAAAGAAUAGUUCCCGCGACAUUCCGCCUUGGAAUUCUCGGGUGCCAA`: “RBNS enrichment (R)” 0.201.
Under “RBNS enrichment (R)”, `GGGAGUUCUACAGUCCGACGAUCUGAACUCAGAACUGUCGGAGGAAAGACAACACAACCAACGCGAAACCAAUUCCUCAUCCUCAGAUGCUCAAAGUUGUUUUUUUUGUUUGUUUGUUUAUUAGAUGAAUUAUUGGAAUUCUCGGGUGCCAA` is recorded as 0.271.
`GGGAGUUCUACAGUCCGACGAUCACCCUAGUUUAAAAAGCGGUUCAAGAAUAAUGUAAACUUAUACAUAUAGCUUAUUUUCUUCAUUUACUAGAGGAGGAAAAAUAGAACCAAAAAAUGCAUGAACUCCUGCUUGGAAUUCUCGGGUGCCAA`: “RBNS enrichment (R)” 0.606.
Under “RBNS enrichment (R)”, `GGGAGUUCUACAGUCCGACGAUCAGGCCCACUCCAGGAGGUGGGCCUCUGGAAUUACAUCUCUACCCUACCCACUUUGGAACCCACUUUCCCCAGUCUCUAGGUCCUGAUGCCUAGUGUGAUGAAGACCUUGCUGGAAUUCUCGGGUGCCAA` is recorded as 0.364.
For `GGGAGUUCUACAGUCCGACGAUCUGGUGAAAGGAAAAUUGCUGGAGGAGGAAGUGCAGGCUCAGACCCAGUCAGUACAAAUGGAAAAGGUCCCACACUGGAACUGGCCGGAACUGGAAGCAGGGGAGGUACGAUGGAAUUCUCGGGUGCCAA`, “RBNS enrichment (R)” read 0.578.
`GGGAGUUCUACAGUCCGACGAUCAAAAUGGUAUCUUACUGACUCUGUUUACUUAUGUGUACAAUUCUGGAAAAUAAAUUUUUUUAUUCUACCACUGUUGAAACACUUUGUCAUCUUAAAAAUUCUUGAAAAUUUGGAAUUCUCGGGUGCCAA`: “RBNS enrichment (R)” 0.386.
`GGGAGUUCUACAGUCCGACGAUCCAAGAGUUGUGACAACUUCCUGAGGGAUCUAUACUUGCUUUGUGUUCUUUGUGUCAACAUGAACAAAUUUUAUUUGUAGGGGAACUCAUUUGGGGUGCAAAUGCUAAUGUUGGAAUUCUCGGGUGCCAA` — result for “RBNS enrichment (R)”: 0.392.
Under “RBNS enrichment (R)”, `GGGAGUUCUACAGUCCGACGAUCAAUAACUUUAUUUUUUAAGACAGGGUUGCAAAUGUUUAAGAAACCAGAAGCAGGUAAAUCUGCCUAUGUCCAGAGCCUUGCUUGCUGCUUGAGUCAUGCCUUACCUGCUAUGGAAUUCUCGGGUGCCAA` is recorded as 1.17.
`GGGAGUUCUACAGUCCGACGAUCCUGGUUUCAUUUGCUUCCCUGCCGGGUUUAUUGUGUGUACCCCAUUUGUACUCCCAAUAACCUGAAGAUUCCAUGUAACUCUUAUGUACGCGCAUGAAUACUUUAAAUGCUGGAAUUCUCGGGUGCCAA` — result for “RBNS enrichment (R)”: 7.21.

Set 2
Target: Interferon regulatory factor 7, full length, phosphomimetic (IRF7, Homo sapiens, UniProt Q92985, residues 1-503, S101K/S471D/S472D/S475D/S476D/S477D/S483D/S484D/S487D)
Technique: protein-binding microarray
Form: double-stranded DNA, one strand shown
Sample: in vitro
Concentration: 250 nM
Notes: 60-bp whole probe
With: salmon DNA 0.4 mg/ml
Relative to: random background probes
Direction: higher = stronger binding
Constant ends, left off below: GCCTAGCAC … GTCTTGATTCGCTTGACGCTGCTG
Residues (chain): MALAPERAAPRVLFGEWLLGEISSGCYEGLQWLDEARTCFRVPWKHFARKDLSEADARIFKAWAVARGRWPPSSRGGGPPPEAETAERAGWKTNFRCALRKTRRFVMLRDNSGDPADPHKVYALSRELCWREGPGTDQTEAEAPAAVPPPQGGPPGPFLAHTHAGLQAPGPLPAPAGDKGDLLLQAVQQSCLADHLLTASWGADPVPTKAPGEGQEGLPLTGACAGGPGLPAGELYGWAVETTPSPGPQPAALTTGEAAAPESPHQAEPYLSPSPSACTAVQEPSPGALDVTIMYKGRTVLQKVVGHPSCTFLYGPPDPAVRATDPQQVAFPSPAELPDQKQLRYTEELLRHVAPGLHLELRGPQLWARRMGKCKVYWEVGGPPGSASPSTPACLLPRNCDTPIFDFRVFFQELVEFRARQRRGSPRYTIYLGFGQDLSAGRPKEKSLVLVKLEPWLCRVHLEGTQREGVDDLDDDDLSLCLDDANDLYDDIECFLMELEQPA
For `CATCATTGCCTATTTTTCACCGTGCTA`, the log fluorescence was 0.0215 z-score.
`GACGAACTGGGGACTGGAGTCGTGCTA` has a log fluorescence of -0.199 z-score.
The log fluorescence of `TTAGGTCTCGGGACTGGGTTAGTGCTA` is reported as 0.481 z-score.
The log fluorescence of `TTAGATTTCAGTATCGTTTAGTGCTAG` is reported as 1.34 z-score.
For `GATGATTTCGGGTTTCGAGACGTGCTA`, the log fluorescence was 4.71 z-score.
`TTAGGACTGCCTCTCCTTTAGTGCTAG` has a log fluorescence of -0.36 z-score.
The log fluorescence of `GACGGTATCGGTTACGGGACGTGCTAG` is reported as 0.827 z-score.
The log fluorescence of `TTAGGTCTCTTACTGCTTTAGTGCTAG` is reported as 0.228 z-score.
`GACGATTCCAGTTTCGAGAGGTGCTAG` has a log fluorescence of 2.77 z-score.
`GACGGTTTCGGATCCGGGACGTGCTAG` gave a log fluorescence of 8.28 z-score.

Set 3
Target: CCNE1, cyclin fold, Cln2 fusion (human)
Technique: yeast growth competition, sequencing
Sample: yeast
Notes: weak parent motif
Relative to: not given
Direction: higher = stronger binding
Starting sequence: CENPC docking peptide (human); VKTKKRLNFDDKV
Under “normalised enrichment score”, `VKTKRRLNFDDKV [K5R]` is recorded as 4.38.
Under “normalised enrichment score”, `VKTAKRLNFDDKV [K4A]` is recorded as 0.569.
`VKTKKRLNFDDKA [V13A]` — result for “normalised enrichment score”: -0.49.
Under “normalised enrichment score”, `VKTKKRLNFDAKV [D11A]` is recorded as 0.491.
For `VKTKARLNFDDKV [K5A]`, “normalised enrichment score” read 0.176.
`VKTKKRLAFDDKV [N8A]` — result for “normalised enrichment score”: 0.909.
`VKTKKALNFDDKV [R6A]` — result for “normalised enrichment score”: 0.772.

Other studies, line by line
With `PhoQ, residues 284 288 289 292 302 303 TNSAEL` the fold induction was 26.2 (PhoP, residues 12 14 15 18 19 LYHSL (Escherichia coli, UniProt P23836); Sort-seq, item: YFP reporter; E. coli; PhoQ-PhoP variant library, with: 10 µM Mg2+; relative to: high Mg2+ state, higher = stronger signaling).

Excerpt of the above (set 2):
For `GATGATTTCGGGTTTCGAGACGTGCTA`, the log fluorescence was 4.71 z-score.
`TTAGGACTGCCTCTCCTTTAGTGCTAG` has a log fluorescence of -0.36 z-score.
The log fluorescence of `GACGGTATCGGTTACGGGACGTGCTAG` is reported as 0.827 z-score.
